Assay results from different studies.
Protocols differ between the studies behind these lines.
Organism: Escherichia coli

With `COc1ccc2ccc(O)c(/C=N/[C@H]3CCCC[C@H]3/N=C/c3cccc(F)c3O)c2c1` the MIC was over 40 µM (microbial growth, broth dilution; clinical isolate).
With `C[C@H](CS)C(=O)Nc1cccc(-c2nn[nH]n2)c1` the MIC was over 64 µg/mL (broth microdilution; DH5α pET28-lacUV5 control; 100 µM).
For `C/C(=C\c1ccc(O)cc1)C(=O)Nc1ccc(C(=O)N[C@@H](Cc2c[nH]nn2)C(=O)Nc2ccc(C(=O)Nc3ccc(C(=O)Nc4ccc(C(=O)O)c(O)c4)c(O)c3)cc2)cc1`, the MIC was 0.5 µg/mL (broth microdilution; ciprofloxacin-resistant).
The MIC of `CCn1cc(/C=C/c2sc3ccccc3[n+]2CC)c2ccccc21` is reported as 16 µg/mL (microbial growth, broth dilution; 780).
With `COc1cc(C(=O)O)ccc1NC(=O)c1ccc(NC(=O)c2ccc(NC(=O)[C@H](Cc3c[nH]nn3)NC(=O)c3ccc(NC(=O)/C(C)=C/c4ccc(O)cc4)cc3)cc2)cc1O` the MIC was 0.125 µg/mL (broth microdilution; DSM 1116).
For `CC1(C)[C@H](NC(=O)/C(=N\OCc2cc(=O)c(O)cn2O)c2csc(N)n2)C(=O)N1OS(=O)(=O)O`, the MIC was 0.06 µg/mL (microbial growth, agar dilution; ATCC25).
`COc1cc(C(=O)O)ccc1NC(=O)c1ccc(NC(=O)c2ccc(NC(=O)[C@H](Cc3c[nH]nn3)NC(=O)c3ccc(NC(=O)/C(C)=C/c4ccc(O)cc4)cc3)cc2)c(OC)c1O` has an MIC of 0.5 µg/mL (broth microdilution; ciprofloxacin-sensitive).
`CC[C@H]1OC(=O)[C@H](C)[C@@H](OC(=O)Cc2ccccc2Cl)[C@H](C)[C@@H](O[C@@H]2O[C@H](C)C[C@H](N(C)C)[C@H]2O)[C@](C)(OC)C[C@@H](C)C(=O)[C@H](C)[C@@H](O)[C@]1(C)O` gave an MIC of over 32 µg/mL (microbial growth; ATCC25922).
`CCC(CC)c1cc(CCN2CCCN(C(=O)OC(C)(C)C)CC2)nc(-c2cccnc2)n1` gave an MIC of over 64 µg/mL (microbial growth, broth dilution; ATCC25922).
The MIC of `CCCCCC[N+](C)(C)CCCCCCCCCCOc1cc(OCCCCCCCCCC[N+](C)(C)CCCCCC)cc(OCCCCCCCCCC[N+](C)(C)CCCCCC)c1.[Br-].[Br-].[Br-]` is reported as 4 µM (MC4100).
For `CC[C@H]1OC(=O)[C@H](C)[C@@H](OC(=O)Cc2ccc3c(c2)OCO3)[C@H](C)[C@@H](O[C@@H]2O[C@H](C)C[C@H](N(C)C)[C@H]2O)[C@](C)(OC)C[C@@H](C)C(=O)[C@H](C)[C@@H](O)[C@]1(C)O`, the MIC was over 64 µM (DSM 30083; compound alone).
For `C=C[C@H]1CC1(NC(=O)C12CC(NC(=O)c3ccc(C#N)cc3)(C1)C2)C(=O)Nc1ccc(C(=O)Nc2ccc(C(=O)Nc3ccc(C(=O)O)cc3)c(O)c2OC(C)C)cc1` (some centres unmarked), the MIC was 0.01 µg/mL (BW25113 ΔacrB).
`CC(C)(O/N=C(\C(=O)N[C@@H]1C(=O)N(OS(=O)(=O)O)C1(C)C)c1nsc(N)n1)C(=O)O` gave an MIC of 16 µg/mL (agar dilution; 16-1, ESBL-producing).
With `COc1c(NC(=O)c2ccc(NC(=O)[C@H](Cc3c[nH]nn3)NC(=O)c3ccc(NC(=O)/C(C)=C/c4ccc(O)cc4)cc3)cc2)ccc(C(=O)Nc2ccc(C(=O)O)cc2)c1O` the MIC was 0.125 µg/mL (broth microdilution; ciprofloxacin-sensitive).
`CC[C@H]1OC(=O)[C@H](C)[C@@H](OC(=O)Cc2ccc(N)cc2)[C@H](C)[C@@H](O[C@@H]2O[C@H](C)C[C@H](N(C)C)[C@H]2O)[C@](C)(OC)C[C@@H](C)C(=O)[C@H](C)[C@@H](O)[C@]1(C)O` gave an MIC of 2 µg/mL (tolC).
The MIC of `CC(CC(=O)O)c1nn(C)c2nc(N)[nH]c(=O)c2c1=O` (centres unmarked) is reported as over 100 µg/mL (microbial growth, broth dilution; BW25113; 18 h).
`COc1ccc(/N=N/C(=S)N2CCN(C)CC2)cc1` has an MIC of over 50 µM (microbial growth, broth dilution; ATCC 8739, ATCC8739; 24 h).
The MIC of `CC[C@H](C)[C@H](NC(=O)[C@@H](CCCNC(=N)N)NC(=O)[C@H](CCCNC(=N)N)NC(=O)[C@@H]1CCCN1C(=O)[C@@H]1CCCN1C(=O)[C@H](CCCNC(=N)N)NC(=O)[C@@H]1CCCN1C(=O)[C@H](CCCNC(=N)N)NC(=O)[C@@H]1CCCN1C(=O)[C@H](CC(C)C)NC(=O)[C@H](Cc1ccc(O)cc1)NC(=O)[C@@H]1CCCN1C(=O)[C@@H]1CCCN1C(=O)[C@H](CCCNC(=N)N)NC(=O)[C@H](CC(=O)O)NC(=O)[C@@H](N)C(C)C)C(=O)N[C@@H](Cc1ccc(O)cc1)C(=O)N[C@@H](CC(N)=O)C(=O)N[C@H](CCCNC(=N)N)C(N)=O` is reported as 8 µg/mL (broth microdilution; ATCC 25922; 18 h, 37 °C, 25% MHB2).
`O=[N+]([O-])c1c(Br)c(Cl)c2cccnc2c1O` has an MIC of 4 µg/mL (microbial growth, broth dilution; ATCC35218).
With `Cn1nc(CCC(=O)O)c(=O)c2c(=O)[nH]c(N)nc21` the MIC was over 100 µg/mL (microbial growth, broth dilution; BW25113; 18 h).
The MIC of `N=C(N)NCCC[C@@H]1NC(=O)[C@H](CCCNC(=N)N)NC(=O)[C@H](CCCNC(=N)N)NC(=O)[C@@H](CCCNC(=N)N)NC(=O)[C@H](Cc2ccc3ccccc3c2)NC(=O)[C@H](Cc2ccc3ccccc3c2)NC(=O)[C@H](Cc2ccc3ccccc3c2)NC1=O` is reported as 16 µg/mL (ATCC 25922).
`CCCCCCCCCCCCCCCCCCn1cc(CN(CCC(=O)NCCN(CCC(=O)NCCN(CCC(=O)NCCN(C)C)CCC(=O)NCCN(C)C)CCC(=O)NCCN(CCC(=O)NCCN(C)C)CCC(=O)NCCN(C)C)CCC(=O)NCCN(CCC(=O)NCCN(CCC(=O)NCCN(C)C)CCC(=O)NCCN(C)C)CCC(=O)NCCN(CCC(=O)NCCN(C)C)CCC(=O)NCCN(C)C)nn1` has an MIC of 6 µg/mL (broth microdilution; ATCC 25922, LB broth; with: 500 mM glutathione).
`COc1ccc2ccc(O)c(/C=N/[C@H]3CCCC[C@H]3/N=C/c3ccccc3O)c2c1` gave an MIC of over 40 µM (microbial growth, broth dilution; clinical isolate).
With `CCOc1c(NC(=O)c2ccc(NC(=O)c3ccc(NC(=O)[C@H](Cc4c[nH]nn4)NC(=O)c4ccc(NC(=O)/C(C)=C/c5ccc(O)cc5)cc4)cc3)c(OC)c2O)ccc(C(=O)O)c1O` the MIC was 0.016 µg/mL (broth microdilution; BW25113).
The MIC of `CC[C@H]1OC(=O)[C@H](C)[C@@H](OC(=O)Cc2c(F)cccc2F)[C@H](C)[C@@H](O[C@@H]2O[C@H](C)C[C@H](N(C)C)[C@H]2O)[C@](C)(OC)C[C@@H](C)C(=O)[C@H](C)[C@@H](O)[C@]1(C)O` is reported as 64 µM (DSM 30083; with: colistin sulfate at 0.1 x MIC).
For `CCCCCC[N+](C)(C)CCCCOc1cc(OCCCC[N+](C)(C)CCCCCC)cc(OCCCC[N+](C)(C)CCCCCC)c1.[Br-].[Br-].[Br-]`, the MIC was 250 µM (MC4100).
`CCCCCCCC(=O)Oc1c(C)c(OC)c2c(/C=C/c3ccccc3)c(CCCCCC)c(=O)oc2c1C` has an MIC of 5000 µg/mL (microbial growth, broth dilution; ATCC25922).
`CC(C)C[C@@H]1NC(=O)[C@@H](CC(C)C)NC(=O)[C@H](CCN)NC(=O)[C@@H](NC(=O)[C@H](CCN)NC(=O)[C@@H](NC(=O)CN=[N+]=[N-])[C@@H](C)O)CCNC(=O)[C@H]([C@@H](C)O)NC(=O)[C@H](CCN)NC(=O)[C@H](CCN)NC1=O` gave an MIC of 64 µg/mL (broth microdilution; ATCC 25922; 18 to 20 h).
The MIC of `COc1c(NC(=O)c2ccc(NC(=O)c3ccc(NC(=O)[C@H](Cc4c[nH]nn4)NC(=O)c4ccc(NC(=O)/C(C)=C/c5ccc(O)cc5)cc4)cc3)cc2)ccc(C(=O)O)c1O` is reported as 0.063 µg/mL (broth microdilution; DSM 1116).
The MIC of `CC(C)C[C@@H]1NC(=O)[C@@H](CC(C)C)NC(=O)[C@H](CCN)NC(=O)[C@@H](NC(=O)[C@H](CCN)NC(=O)[C@@H](N)[C@@H](C)O)CCNC(=O)[C@H]([C@@H](C)O)NC(=O)[C@H](CCN)NC(=O)[C@H](CCN)NC1=O` is reported as over 128 µg/mL (broth microdilution; ATCC 25922; 18 to 20 h).
For `COc1c(NC(=O)c2ccc(NC(=O)c3ccc(NC(=O)[C@H](Cc4c[nH]nn4)NC(=O)c4ccc(NC(=O)/C(C)=C/c5ccc(O)cc5)cc4)cc3)cc2O)ccc(C(=O)O)c1O`, the MIC was 0.063 µg/mL (broth microdilution; BW25113).
For `CCCCCCCCn1cc[n+](CCCCCCCCCCOc2cc(OCCCCCCCCCC[n+]3ccn(CCCCCCCC)c3)cc(OCCCCCCCCCC[n+]3ccn(CCCCCCCC)c3)c2)c1.[Br-].[Br-].[Br-]`, the MIC was 16 µM (MC4100).
For `COc1ccc2ccc(O)c(/C=N/[C@H]3CCCC[C@H]3/N=C/c3cccc(C)c3O)c2c1`, the MIC was over 40 µM (microbial growth, broth dilution; clinical isolate).
`CC[C@H]1OC(=O)[C@H](C)[C@@H](OC(=O)c2ccc(N)cc2)[C@H](C)[C@@H](O[C@@H]2O[C@H](C)C[C@H](N(C)C)[C@H]2O)[C@](C)(OC)C[C@@H](C)C(=O)[C@H](C)[C@@H](O)[C@]1(C)O` gave an MIC of over 32 µg/mL (microbial growth; ATCC25922).
`COc1c(NC(=O)c2ccc(NC(=O)[C@H](Cc3c[nH]nn3)NC(=O)c3ccc(NC(=O)/C(C)=C/c4ccc(O)cc4)cc3)cc2)ccc(C(=O)Nc2ccc(C(=O)O)c(O)c2)c1O` has an MIC of 0.25 µg/mL (broth microdilution; ciprofloxacin-sensitive).

Some of these lines once more:
With `Cn1nc(CCC(=O)O)c(=O)c2c(=O)[nH]c(N)nc21` the MIC was over 100 µg/mL (microbial growth, broth dilution; BW25113; 18 h).
The MIC of `N=C(N)NCCC[C@@H]1NC(=O)[C@H](CCCNC(=N)N)NC(=O)[C@H](CCCNC(=N)N)NC(=O)[C@@H](CCCNC(=N)N)NC(=O)[C@H](Cc2ccc3ccccc3c2)NC(=O)[C@H](Cc2ccc3ccccc3c2)NC(=O)[C@H](Cc2ccc3ccccc3c2)NC1=O` is reported as 16 µg/mL (ATCC 25922).
`CCCCCCCCCCCCCCCCCCn1cc(CN(CCC(=O)NCCN(CCC(=O)NCCN(CCC(=O)NCCN(C)C)CCC(=O)NCCN(C)C)CCC(=O)NCCN(CCC(=O)NCCN(C)C)CCC(=O)NCCN(C)C)CCC(=O)NCCN(CCC(=O)NCCN(CCC(=O)NCCN(C)C)CCC(=O)NCCN(C)C)CCC(=O)NCCN(CCC(=O)NCCN(C)C)CCC(=O)NCCN(C)C)nn1` has an MIC of 6 µg/mL (broth microdilution; ATCC 25922, LB broth; with: 500 mM glutathione).
